Results of several laboratories.
Compare with care: the assays were run in different laboratories.
Organism: Staphylococcus aureus

Substance | test | system | conditions | how to read | measurement | value
COc1ccc(C=Nc2ncn[nH]2)cc1 | broth microdilution | MRSA2, methicillin-resistant | 16 to 24 h |  | MIC | > 256 µg/mL
O=C1c2ccccc2NC(c2cc([N+](=O)[O-])ccc2O)N1/N=C/c1cc([N+](=O)[O-])ccc1O (stereo not drawn) | respiratory activity, inhibitor, MTT | ATCC 29213 | concentration not given | at least 70% inhibition | lowest effective concentration | 0.12 × MIC
CO/N=C(\C(=O)N[C@@H]1C(=O)N2C(C(=O)O)=C(CSc3nc(=O)c(=O)[nH]n3C)CS[C@H]12)c1csc(N)n1 | checkerboard broth microdilution | ATCC 27853 | with: ranalexin |  | FIC index | 1
CCc1cc(=O)c2c(OCC(O)CN3CCOCC3)c3ccoc3c(OC)c2o1 (stereo not drawn) | microbial growth, broth dilution | ATCC6538 | 19 h |  | MIC | > 256 µg/mL
C[C@@H](O)[C@H]1C(=O)N2C(C(=O)O)=C(S[C@@H]3CN[C@H](C(=O)N(C)C)C3)[C@H](C)[C@H]12 | checkerboard broth microdilution | clinical isolate 15-99 | with: magainin II |  | FIC index | 0.187
CN(C)c1cc(CNCC(C)(C)C)c(O)c2c1C[C@H]1C[C@H]3[C@H](N(C)C)C(O)=C(C(N)=O)C(=O)[C@@]3(O)C(O)=C1C2=O |  | MRSA 5 tetM, mouse thigh infection model | sc, 20 mg/kg, 24 h | reference: untreated control | log10 CFU change | 2.49 log10
C[C@H]1c2cccc(O)c2C(=O)C2=C(O)[C@]3(O)C(=O)C(C(N)=O)=C(O)[C@@H](N(C)C)[C@@H]3[C@@H](O)[C@@H]21 | checkerboard broth microdilution | clinical isolate 14-99 | with: magainin II |  | FIC index | 1
CNC(C)C1CCC(N)C(OC2C(N)CC(N)C(OC3OCC(C)(O)C(NC)C3O)C2O)O1 (stereo not drawn) |  | IFO 3060 | 100 µg/disc, 24 h |  | inhibition zone diameter | 26 mm
CC[C@H]1OC(=O)[C@H](C)[C@@H](O[C@H]2C[C@@](C)(OC)[C@@H](O)[C@H](C)O2)[C@H](C)[C@@H](O[C@@H]2O[C@H](C)C[C@H](N(C)C)[C@H]2O)[C@](C)(OC)C[C@@H](C)C(=O)[C@H](C)[C@@H](O)[C@]1(C)O | checkerboard | ATCC 25923 | with: magainin II |  | FIC index | 0.75
COc1cc(C=Cc2cc(-c3ccccc3)nc(O)n2)ccc1O | microbial growth, disc diffusion | ATCC29213 | 250 µg/mL |  | inhibition zone | 17 mm
RWQWRWQWR | broth microdilution | peptide, ATCC 25923 |  |  | MBC | > 135 µM
CCc1cc(=O)c2c(OCC(O)CN3CCC(C)CC3)c3ccoc3c(OC)c2o1 (stereo not drawn) | microbial growth, broth dilution | ATCC6538 | 19 h |  | MIC | > 256 µg/mL
CCSC1CC(=O)C(C)(CCC(=O)Nc2c(O)ccc(C(=O)O)c2O)C2C3CC4CC12CC4(C)O3 (stereo not drawn) |  | MRSA, BALB/c mice burn wound, skin | topical, 2% ointment twice daily, 7 days |  | viable bacteria in skin | 8.6e+06 CFU/g
CC1(C)S[C@@H]2[C@H](NC(=O)[C@H](N)c3ccccc3)C(=O)N2[C@H]1C(=O)O |  | IFO 3060 | 100 µg/disc, 24 h |  | inhibition zone diameter | 23 mm
Cc1nn2c(=O)cc(Cc3ccccc3)[nH]c2c1-c1ccc(Cl)cc1 | ICP-MS |  | 0.6 µM, with: Cu 50 µM | reference: equimolar Cu only | cell-associated Cu content | ~13 fold

For quick reference, copied from above:
Substance | test | system | conditions | how to read | measurement | value
Cc1nn2c(=O)cc(Cc3ccccc3)[nH]c2c1-c1ccc(Cl)cc1 | ICP-MS |  | 0.6 µM, with: Cu 50 µM | reference: equimolar Cu only | cell-associated Cu content | ~13 fold
CC[C@H]1OC(=O)[C@H](C)[C@@H](O[C@H]2C[C@@](C)(OC)[C@@H](O)[C@H](C)O2)[C@H](C)[C@@H](O[C@@H]2O[C@H](C)C[C@H](N(C)C)[C@H]2O)[C@](C)(OC)C[C@@H](C)C(=O)[C@H](C)[C@@H](O)[C@]1(C)O | checkerboard | ATCC 25923 | with: magainin II |  | FIC index | 0.75
